Results gathered from unrelated publications.
Each line is one published result; not all experiments were run side by side.
Organism: Pseudomonas aeruginosa

For C#CCOc1ccc(CN[C@@]2(C)C[C@H](O[C@H]3[C@H](Oc4c5cc6cc4Oc4ccc(cc4Cl)[C@@H](O)[C@@H](NC(=O)[C@@H](CC(C)C)NC)C(=O)N[C@@H](CC(N)=O)C(=O)N[C@H]6C(=O)N[C@H]4C(=O)N[C@H](C(=O)N[C@H](C(=O)O)c6cc(O)cc(O)c6-c6cc4ccc6O)[C@H](O)c4ccc(c(Cl)c4)O5)O[C@H](CO)[C@@H](O)[C@@H]3O)O[C@@H](C)[C@H]2O)cc1OC, the MIC was over 128 µg/mL (broth microdilution; ATCC 27853, cation-adjusted Mueller-Hinton broth; 18 to 20 h, 37 °C, 0.002% polysorbate 80).
CC[C@H](C)[C@H](NC(=O)[C@H](CCCCN)NC(=O)[C@@H](NC(=O)[C@@H](NC(=O)[C@H](CC(C)C)NC(=O)[C@H](CCCNC(=N)N)NC(=O)[C@@H](NC(=O)[C@H](CC(C)C)NC(=O)[C@H](CCCNC(=N)N)NC(=O)CNC(=O)[C@H](Cc1ccccc1)NC(=O)[C@@H](N)CCCNC(=N)N)[C@@H](C)CC)[C@@H](C)CC)C(C)C)C(=O)N[C@@H](C)C(=O)N[C@@H](CCCNC(=N)N)C(=O)N[C@@H](CCCNC(=N)N)C(=O)N[C@@H](C)C(=O)N[C@@H](Cc1c[nH]cn1)C(=O)N[C@@H](CCCNC(=N)N)C(=O)N[C@@H](C)C(=O)N[C@@H](CCCNC(=N)N)C(=O)N1CCC[C@H]1C(=O)N[C@@H](C)C(=O)N[C@H](C(=O)N[C@@H](CCCCN)C(=O)N[C@@H](C)C(=O)N[C@@H](C)C(=O)N[C@@H](CO)C(=O)N[C@@H](CC(N)=O)C(=O)N[C@H](C(=O)N[C@@H](C)C(=O)N[C@@H](CCC(=O)O)C(=O)N[C@@H](CC(C)C)C(=O)N[C@@H](C)C(=O)N[C@@H](Cc1c[nH]cn1)C(=O)NCC(=O)N[C@@H](CCC(=O)O)C(N)=O)C(C)C)C(C)C has an MIC of at most 0.062 µM (bacterial growth, broth microdilution; cation-adjusted Mueller Hinton broth; 18 h, 37 °C).
The MIC of CCCCCCCC(=O)N[C@@H](CCN)C(=O)N[C@H](C(=O)N[C@@H](CCN)C(=O)N[C@H]1CCNC(=O)[C@H]([C@@H](C)O)NC(=O)[C@H](CCN)NC(=O)[C@H](CCN)NC(=O)[C@H](CC(C)C)NC(=O)[C@@H](CCc2ccccc2)NC(=O)[C@H](CCN)NC1=O)[C@@H](C)O is reported as 0.25 to 0.5 µg/mL (broth microdilution; PAO1, colistin-susceptible).
For CN[C@H](CC(C)C)C(=O)N[C@H]1C(=O)N[C@@H](CC(N)=O)C(=O)N[C@H]2C(=O)N[C@H]3C(=O)N[C@H](C(=O)N[C@H](C(=O)O)c4cc(O)cc(O)c4-c4cc3ccc4O)[C@H](O)c3ccc(c(Cl)c3)Oc3cc2cc(c3O[C@@H]2O[C@H](CO)[C@@H](O)[C@H](O)[C@H]2O[C@H]2C[C@](C)(NCc3ccc(OCc4cn(CCCCC(=O)N[C@H](C(=O)N[C@@H](CCN)C(=O)N[C@H]5CCNC(=O)[C@H]([C@@H](C)O)NC(=O)[C@H](CCN)NC(=O)[C@H](CCN)NC(=O)[C@H](CC(C)C)NC(=O)[C@@H](CC(C)C)NC(=O)[C@H](CCN)NC5=O)[C@@H](C)O)nn4)c(OC)c3)[C@H](O)[C@H](C)O2)Oc2ccc(cc2Cl)[C@H]1O, the MIC was 6 µM (broth microdilution; ATCC 25922, cation-adjusted Mueller-Hinton broth).
CC[C@H](C)[C@H](NC(=O)[C@@H](CCCNC(=N)N)NC(=O)[C@H](CCCNC(=N)N)NC(=O)[C@@H]1CCCN1C(=O)[C@@H]1CCCN1C(=O)[C@H](CCCNC(=N)N)NC(=O)[C@H](Cc1c[nH]c2ccccc12)NC(=O)[C@H](CCCNC(=N)N)NC(=O)[C@@H]1CCCN1C(=O)[C@H](CC(C)C)NC(=O)[C@H](Cc1ccc(O)cc1)NC(=O)[C@@H]1CCCN1C(=O)[C@@H]1CCCN1C(=O)[C@H](CCCCN)NC(=O)[C@H](CC(=O)O)NC(=O)[C@@H](N)C(C)C)C(=O)N[C@@H](Cc1ccc(O)cc1)C(=O)N[C@@H](CC(N)=O)C(=O)N[C@H](CCCNC(=N)N)C(N)=O gave an MIC of over 128 µg/mL (broth microdilution; DSM 1117; 18 h, 37 °C, 25% MHB2).
The MIC of CCn1c(-c2ccc(-c3ccc(OC)cc3)cc2)c(-c2ccc(-c3ccc(OC)cc3)cc2)n(CC)c1=[Se] is reported as over 40 µM (broth microdilution; carbapenem-resistant BAA-2108; 24 h).
The MIC of CC[C@H](C)[C@H](NC(=O)[C@H](CCCCN)NC(=O)[C@H](CCCCN)NC(=O)[C@H](Cc1ccccc1)NC(=O)[C@H](Cc1ccccc1)NC(=O)[C@H](CCCCN)NC(=O)[C@H](CCCCN)NC(=O)[C@H](Cc1ccccc1)NC(=O)[C@H](CCCNC(=N)N)NC(=O)[C@@H](N)CCCCN)C(=O)N[C@@H](CCCCN)C(=O)N[C@@H](CCCCN)C(=O)N[C@@H](CO)C(=O)N[C@H](C(=O)N[C@@H](CCCCN)C(=O)N[C@@H](CCCCN)C(=O)N[C@@H](CCCNC(=N)N)C(=O)N[C@H](C(=O)N[C@@H](CCCCN)C(=O)N[C@@H](CCCCN)C(=O)N[C@@H](CC(C)C)C(=O)N[C@@H](Cc1ccccc1)C(=O)N[C@@H](CCCCN)C(=O)N[C@@H](CCCCN)C(=O)N1CCC[C@H]1C(=O)N[C@@H](CCCNC(=N)N)C(=O)N[C@H](C(=O)N[C@H](C(=O)N1CCC[C@H]1C(=O)N[C@H](C(=O)N[C@@H](CO)C(=O)N[C@H](C(=O)N1CCC[C@H]1C(=O)N[C@@H](Cc1ccccc1)C(=O)O)[C@@H](C)CC)[C@@H](C)CC)[C@@H](C)CC)C(C)C)C(C)C)C(C)C is reported as 16 µg/mL (CLSI agar dilution; ATCC 27853; 20 h, 37 °C).
CC(=CC(C)CCCCC(=O)O)C1OC2C=CC1OC(=O)C=CC=CC=CC1OC3CC1OC(C=CCC1OC(CC(O)C1C)C(O)C(O)C=CCCC=CC2)C3C (stereo not shown) has an MIC of over 20 µM (DSM 117).
For CC[C@H](C)[C@H](NC(=O)[C@@H](CCCNC(=N)N)NC(=O)[C@H](CCCNC(=N)N)NC(=O)[C@@H]1CCCN1C(=O)[C@@H]1CCCN1C(=O)[C@H](CCCNC(=N)N)NC(=O)[C@@H]1CCCN1C(=O)[C@H](CCCNC(=N)N)NC(=O)[C@@H]1CCCN1C(=O)[C@@H](NC(=O)[C@H](Cc1ccc(O)cc1)NC(=O)[C@@H]1CCCN1C(=O)[C@@H]1CCCN1C(=O)[C@H](CCCCN)NC(=O)[C@H](CC(=O)O)NC(=O)[C@@H](N)C(C)C)C(C)(C)C)C(=O)N[C@@H](Cc1ccc(O)cc1)C(=O)N[C@@H](CC(N)=O)C(=O)N[C@H](CCCNC(=N)N)C(N)=O, the MIC was 128 µg/mL (broth microdilution; DSM 1117; 18 h, 37 °C, 25% MHB2).
With C#CCOc1ccc(CN[C@@]2(C)C[C@H](O[C@H]3[C@H](Oc4c5cc6cc4Oc4ccc(cc4Cl)[C@@H](O)[C@@H](NC(=O)[C@@H](CC(C)C)NC)C(=O)N[C@@H](CC(N)=O)C(=O)N[C@H]6C(=O)N[C@H]4C(=O)N[C@H](C(=O)N[C@H](C(=O)NCC(N)=O)c6cc(O)cc(O)c6-c6cc4ccc6O)[C@H](O)c4ccc(c(Cl)c4)O5)O[C@H](CO)[C@@H](O)[C@@H]3O)O[C@@H](C)[C@H]2O)cc1OC the MIC was 76 µM (broth microdilution; ATCC 17978, cation-adjusted Mueller-Hinton broth).

A few entries again:
For CN[C@H](CC(C)C)C(=O)N[C@H]1C(=O)N[C@@H](CC(N)=O)C(=O)N[C@H]2C(=O)N[C@H]3C(=O)N[C@H](C(=O)N[C@H](C(=O)O)c4cc(O)cc(O)c4-c4cc3ccc4O)[C@H](O)c3ccc(c(Cl)c3)Oc3cc2cc(c3O[C@@H]2O[C@H](CO)[C@@H](O)[C@H](O)[C@H]2O[C@H]2C[C@](C)(NCc3ccc(OCc4cn(CCCCC(=O)N[C@H](C(=O)N[C@@H](CCN)C(=O)N[C@H]5CCNC(=O)[C@H]([C@@H](C)O)NC(=O)[C@H](CCN)NC(=O)[C@H](CCN)NC(=O)[C@H](CC(C)C)NC(=O)[C@@H](CC(C)C)NC(=O)[C@H](CCN)NC5=O)[C@@H](C)O)nn4)c(OC)c3)[C@H](O)[C@H](C)O2)Oc2ccc(cc2Cl)[C@H]1O, the MIC was 6 µM (broth microdilution; ATCC 25922, cation-adjusted Mueller-Hinton broth).
